Assay results pooled from the literature.
Numbers after ± are the reported error.
CHRM1: Muscarinic acetylcholine receptor M1 (CHRM1, Homo sapiens, UniProt P11229)
Sequence of UniProt P11229 (whole entry, looked up): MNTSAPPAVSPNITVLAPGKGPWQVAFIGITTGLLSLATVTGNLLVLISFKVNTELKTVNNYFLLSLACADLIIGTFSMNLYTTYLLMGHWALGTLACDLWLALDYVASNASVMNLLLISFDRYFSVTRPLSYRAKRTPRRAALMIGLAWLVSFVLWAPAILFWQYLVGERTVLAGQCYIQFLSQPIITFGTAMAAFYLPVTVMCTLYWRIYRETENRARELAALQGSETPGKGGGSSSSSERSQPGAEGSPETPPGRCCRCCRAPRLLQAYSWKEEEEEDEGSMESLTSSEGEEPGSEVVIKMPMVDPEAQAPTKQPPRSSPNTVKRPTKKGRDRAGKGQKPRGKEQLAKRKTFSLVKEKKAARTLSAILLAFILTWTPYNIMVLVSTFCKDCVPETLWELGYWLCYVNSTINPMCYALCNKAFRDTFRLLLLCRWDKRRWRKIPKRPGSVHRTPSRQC
T1: RNA G-quadruplex, G-quadruplex, K+ folded (Homo sapiens); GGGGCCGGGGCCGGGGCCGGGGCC
Sequence of UniProt P06401 (whole entry, looked up): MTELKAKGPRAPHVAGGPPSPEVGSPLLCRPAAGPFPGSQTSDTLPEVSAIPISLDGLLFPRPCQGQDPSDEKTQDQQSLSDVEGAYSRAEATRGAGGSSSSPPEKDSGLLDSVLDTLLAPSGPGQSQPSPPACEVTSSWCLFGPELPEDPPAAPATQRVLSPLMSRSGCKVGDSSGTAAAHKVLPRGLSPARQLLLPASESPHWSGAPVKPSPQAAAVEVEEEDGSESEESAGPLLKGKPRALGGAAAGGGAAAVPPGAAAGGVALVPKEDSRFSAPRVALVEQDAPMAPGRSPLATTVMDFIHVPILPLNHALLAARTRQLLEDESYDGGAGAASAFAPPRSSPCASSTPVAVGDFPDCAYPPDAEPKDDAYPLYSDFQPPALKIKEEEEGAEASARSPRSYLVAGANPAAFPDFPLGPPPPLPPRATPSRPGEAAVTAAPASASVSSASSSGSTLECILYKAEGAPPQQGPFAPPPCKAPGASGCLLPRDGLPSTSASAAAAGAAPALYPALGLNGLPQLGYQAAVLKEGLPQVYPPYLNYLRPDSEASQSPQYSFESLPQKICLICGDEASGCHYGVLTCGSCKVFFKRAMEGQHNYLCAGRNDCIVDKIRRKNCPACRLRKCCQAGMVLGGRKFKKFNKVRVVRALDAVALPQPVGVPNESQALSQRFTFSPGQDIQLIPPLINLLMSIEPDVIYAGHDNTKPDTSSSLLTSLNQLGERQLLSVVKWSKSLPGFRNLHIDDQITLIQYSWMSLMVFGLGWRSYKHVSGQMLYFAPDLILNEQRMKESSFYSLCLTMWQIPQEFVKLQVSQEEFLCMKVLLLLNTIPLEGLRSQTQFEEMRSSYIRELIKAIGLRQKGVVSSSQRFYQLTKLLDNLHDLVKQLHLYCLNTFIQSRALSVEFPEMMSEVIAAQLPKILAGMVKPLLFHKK
Sequence of UniProt P37231 (whole entry, looked up): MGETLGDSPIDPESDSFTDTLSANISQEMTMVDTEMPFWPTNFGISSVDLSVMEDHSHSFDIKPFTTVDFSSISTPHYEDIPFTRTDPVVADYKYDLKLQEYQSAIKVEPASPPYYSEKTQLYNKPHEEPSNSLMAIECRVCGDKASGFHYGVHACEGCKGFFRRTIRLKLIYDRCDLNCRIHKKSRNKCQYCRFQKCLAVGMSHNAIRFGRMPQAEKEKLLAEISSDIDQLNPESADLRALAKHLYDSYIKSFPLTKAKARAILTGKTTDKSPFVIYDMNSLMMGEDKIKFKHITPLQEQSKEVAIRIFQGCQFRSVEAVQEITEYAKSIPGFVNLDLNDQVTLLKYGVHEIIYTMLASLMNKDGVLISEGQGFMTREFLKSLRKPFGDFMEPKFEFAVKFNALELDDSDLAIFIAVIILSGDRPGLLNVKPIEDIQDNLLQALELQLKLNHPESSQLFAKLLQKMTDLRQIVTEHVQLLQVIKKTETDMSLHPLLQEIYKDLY
Sequence of UniProt P31424 (whole entry, looked up): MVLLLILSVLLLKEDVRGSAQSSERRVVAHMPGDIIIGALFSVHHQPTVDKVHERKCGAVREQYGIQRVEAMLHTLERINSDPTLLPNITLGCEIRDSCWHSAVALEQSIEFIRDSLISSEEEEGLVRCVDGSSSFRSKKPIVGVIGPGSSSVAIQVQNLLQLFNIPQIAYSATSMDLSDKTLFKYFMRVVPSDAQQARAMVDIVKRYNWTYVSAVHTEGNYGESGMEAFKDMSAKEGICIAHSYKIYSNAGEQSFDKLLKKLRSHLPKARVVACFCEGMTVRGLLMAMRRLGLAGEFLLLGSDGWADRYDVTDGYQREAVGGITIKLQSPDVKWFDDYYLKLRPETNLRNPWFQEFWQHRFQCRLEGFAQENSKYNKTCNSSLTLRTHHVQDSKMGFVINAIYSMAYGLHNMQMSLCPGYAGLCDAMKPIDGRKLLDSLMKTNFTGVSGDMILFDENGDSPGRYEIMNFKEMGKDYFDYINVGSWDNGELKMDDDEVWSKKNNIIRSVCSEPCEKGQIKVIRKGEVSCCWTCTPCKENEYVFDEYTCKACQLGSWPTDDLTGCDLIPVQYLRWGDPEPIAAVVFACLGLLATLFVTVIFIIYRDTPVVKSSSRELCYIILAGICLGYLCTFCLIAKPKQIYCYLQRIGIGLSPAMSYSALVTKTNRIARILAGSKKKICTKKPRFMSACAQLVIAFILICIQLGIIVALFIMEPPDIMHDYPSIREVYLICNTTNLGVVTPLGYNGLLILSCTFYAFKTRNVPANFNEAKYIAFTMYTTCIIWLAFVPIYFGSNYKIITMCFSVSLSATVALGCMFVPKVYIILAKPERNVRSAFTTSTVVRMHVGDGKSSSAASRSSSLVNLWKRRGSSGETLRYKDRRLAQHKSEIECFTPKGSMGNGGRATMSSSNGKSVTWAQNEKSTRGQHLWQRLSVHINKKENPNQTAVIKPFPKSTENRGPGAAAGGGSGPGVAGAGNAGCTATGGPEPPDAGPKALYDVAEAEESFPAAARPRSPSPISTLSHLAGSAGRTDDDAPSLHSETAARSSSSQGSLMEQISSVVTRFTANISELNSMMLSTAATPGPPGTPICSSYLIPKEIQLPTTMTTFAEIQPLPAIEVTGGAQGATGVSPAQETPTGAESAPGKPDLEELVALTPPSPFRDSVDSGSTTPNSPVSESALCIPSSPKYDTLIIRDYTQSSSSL
Sequence of UniProt Q9Y5Y9 (whole entry, looked up): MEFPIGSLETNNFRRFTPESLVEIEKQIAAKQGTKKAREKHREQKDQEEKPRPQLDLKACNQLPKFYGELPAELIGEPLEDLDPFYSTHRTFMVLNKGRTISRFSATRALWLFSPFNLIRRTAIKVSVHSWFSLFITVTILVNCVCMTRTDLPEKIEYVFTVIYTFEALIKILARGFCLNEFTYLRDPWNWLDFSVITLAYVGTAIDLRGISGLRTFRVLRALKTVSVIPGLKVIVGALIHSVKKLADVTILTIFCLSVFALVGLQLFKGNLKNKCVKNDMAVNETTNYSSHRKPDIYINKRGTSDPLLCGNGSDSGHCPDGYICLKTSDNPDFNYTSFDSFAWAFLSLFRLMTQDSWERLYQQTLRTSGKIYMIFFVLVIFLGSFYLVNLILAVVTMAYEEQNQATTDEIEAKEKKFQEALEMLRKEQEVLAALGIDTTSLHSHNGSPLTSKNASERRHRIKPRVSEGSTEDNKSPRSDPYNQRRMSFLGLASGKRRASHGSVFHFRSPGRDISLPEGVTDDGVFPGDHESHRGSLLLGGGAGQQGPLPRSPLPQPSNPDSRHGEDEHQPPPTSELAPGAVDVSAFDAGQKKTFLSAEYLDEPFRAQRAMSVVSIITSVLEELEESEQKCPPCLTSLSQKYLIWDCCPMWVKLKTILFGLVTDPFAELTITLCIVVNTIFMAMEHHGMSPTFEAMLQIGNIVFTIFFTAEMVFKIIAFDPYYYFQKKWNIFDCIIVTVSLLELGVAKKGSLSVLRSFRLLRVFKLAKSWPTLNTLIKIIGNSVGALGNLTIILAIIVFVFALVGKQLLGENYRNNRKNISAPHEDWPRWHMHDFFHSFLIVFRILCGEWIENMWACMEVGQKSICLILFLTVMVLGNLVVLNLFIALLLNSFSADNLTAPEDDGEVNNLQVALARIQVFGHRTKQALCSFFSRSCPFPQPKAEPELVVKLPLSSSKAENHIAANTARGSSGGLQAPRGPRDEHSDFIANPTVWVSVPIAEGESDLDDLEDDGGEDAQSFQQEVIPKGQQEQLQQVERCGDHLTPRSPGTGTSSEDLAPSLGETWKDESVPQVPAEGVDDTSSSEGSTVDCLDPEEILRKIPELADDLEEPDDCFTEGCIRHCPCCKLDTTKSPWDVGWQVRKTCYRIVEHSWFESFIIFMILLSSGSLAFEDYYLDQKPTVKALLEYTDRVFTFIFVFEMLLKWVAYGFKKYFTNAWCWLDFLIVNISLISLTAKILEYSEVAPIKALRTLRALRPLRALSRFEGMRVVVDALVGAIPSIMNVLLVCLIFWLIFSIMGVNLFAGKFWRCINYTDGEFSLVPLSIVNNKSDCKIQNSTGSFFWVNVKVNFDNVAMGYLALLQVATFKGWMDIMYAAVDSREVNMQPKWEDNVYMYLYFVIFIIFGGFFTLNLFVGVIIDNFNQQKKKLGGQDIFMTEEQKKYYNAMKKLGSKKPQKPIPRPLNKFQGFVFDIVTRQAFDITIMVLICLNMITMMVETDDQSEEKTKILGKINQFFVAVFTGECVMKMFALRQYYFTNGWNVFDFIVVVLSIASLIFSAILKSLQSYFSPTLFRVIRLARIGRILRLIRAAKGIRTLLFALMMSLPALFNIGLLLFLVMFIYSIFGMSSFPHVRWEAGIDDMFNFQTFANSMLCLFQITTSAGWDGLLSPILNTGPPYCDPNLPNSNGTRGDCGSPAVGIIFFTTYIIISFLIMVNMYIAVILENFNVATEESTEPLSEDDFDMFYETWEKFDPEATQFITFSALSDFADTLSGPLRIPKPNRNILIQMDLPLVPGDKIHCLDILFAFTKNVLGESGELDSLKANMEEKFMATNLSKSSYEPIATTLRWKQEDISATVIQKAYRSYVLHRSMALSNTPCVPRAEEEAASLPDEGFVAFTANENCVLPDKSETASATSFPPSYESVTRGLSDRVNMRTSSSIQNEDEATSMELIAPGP

SMILES = O=c1c(O)cc([C@H]2Oc3cc(O)cc(O)c3C[C@H]2O)cc2c([C@H]3Oc4cc(O)cc(O)c4C[C@H]3O)cc(O)c(O)c12; target = Protein immune deficiency (imd, Drosophila melanogaster, UniProt Q7K4Z4); test = inhibitor, SDD-AGE densitometry; conditions = 100 µM, 30 min, room temperature; measurement = reduction of aggregates; result = 60.9%
SMILES = O=c1cc(-c2ccccc2OCc2ccc(Br)cc2F)ncn1C1CCCCC1O (stereo not drawn); target = CHRM1; test = allosteric agonist, IP1 accumulation; system = CHO-M1 cells; conditions = 1 µM, unit not given; scale = relative to: maximum ACh response; measurement = change in baseline activity; result = -7.4 ± 2.5
SMILES = CCCCCCNc1nc2c(N)ncnc2n1[C@@H]1O[C@@H]2COP(=O)(O)OC2[C@@H]1O (stereo partly drawn); target = cAMP-dependent protein kinase type II-beta regulatory subunit, holoenzyme with catalytic subunit (Prkar2b, Rattus norvegicus, UniProt P12369, S112A); test = PKA holoenzyme activation, activator, fluorescence anisotropy; scale = relative to: RIIβ over RIα, higher = RIIβ-selective; measurement = selectivity ratio; result = 0.3
SMILES = CCCCC1CC1C(=O)Nc1nc2c(OC)ccc(C)c2s1 (stereo not drawn); target = CHRM4 (Homo sapiens, UniProt P08173); test = calcium mobilization, positive allosteric modulator; system = CHO expressing hM4 and Gqi5; conditions = concentration not given, together with: acetylcholine EC20; measurement = activity; result = inactive
SMILES = CN(C)S(=O)(=O)c1ccc(COc2ccccc2-c2cc(=O)n(C3CCCCC3O)cn2)cc1 (stereo not drawn); target = CHRM1; test = allosteric agonist, IP1 accumulation; system = CHO-M1 cells; conditions = 1 µM, unit not given; scale = relative to: maximum ACh response; measurement = change in baseline activity; result = 14.4 ± 2.2
SMILES = COC(=O)c1scc(C)c1NC(=O)C(C)N1C(C)COCC1C (stereo not drawn); target = SCN10A (Homo sapiens, UniProt Q9Y5Y9); test = cell membrane chromatography; scale = higher = stronger binding; measurement = capacity factor k′; result = 12
SMILES = CCc1c(C)n(Cc2ccc(-c3ccccc3C(=O)OC)cc2)c2ccccc12; target = PPARG (Homo sapiens, UniProt P37231); system = COS-7; conditions = 10 µM, 39 h; measurement = Emax; result = 3.16%
SMILES = CSc1nc2c([nH]1)c(=S)n(C)c(=S)n2C; target = PGR (Homo sapiens, UniProt P06401); test = reporter gene, antagonist, MMTV-luciferase; system = T47D/A1-2; conditions = 10 µM, 24 h, together with: 5 nM progesterone; scale = relative to: maximal activity; measurement = remaining activity; result = 107%
SMILES = CCn1cc(-c2ccc(COc3ccccc3-c3cc(=O)n(C4CCCCC4O)cn3)cc2)cn1 (stereo not drawn); target = CHRM1; test = positive allosteric modulator, IP1 accumulation; system = CHO-M1 cells; conditions = 1 µM, 60 min, 37 °C, together with: ACh; scale = relative to: ACh alone, higher = stronger potentiation; measurement = ΔpEC50 of ACh; result = 1.81 ± 0.13 log units
SMILES = CSc1ccc(/C=C2/C(C)=C(CC(=O)O)c3cc(F)ccc32)cc1; target = PDE1A (Homo sapiens, UniProt P54750); test = cGMP hydrolysis, inhibitor; conditions = up to 200 µM; measurement = IC50; result = inactive
SMILES = C[n+]1ccc(-c2c3nc(c(-c4cc[n+](C)cc4)c4ccc([nH]4)c(-c4cc[n+](C)cc4)c4nc(c(-c5cc[n+](C)cc5)c5ccc2[nH]5)C=C4)C=C3)cc1; target = T1, RNA G-quadruplex, G-quadruplex, K+ folded (Homo sapiens); test = biolayer interferometry; conditions = pH 7.0, 30 °C, KCl 185 mM; measurement = Kd; result = 50 nM
SMILES = CCCCCCCCCCCCCCCC(=O)N[C@@H](CCC(=O)NCCCC[C@H](NC(=O)[C@H](CC(C)C)NC(=O)[C@@H]1CCCN1C(=O)[C@H](C)NC(=O)c1ccc2c(c1)C(=O)OC21c2ccc(O)cc2Oc2cc(O)ccc21)C(=O)N1CCC[C@H]1C(=O)N[C@H](C(=O)N[C@@H](Cc1ccc(O)cc1)C(=O)N1CCC[C@H]1C(=O)NCC(=O)N[C@@H](CC(=O)O)C(=O)N[C@@H](CC(N)=O)C(=O)N[C@@H](C)C(=O)N[C@H](C(=O)N1CCC[C@H]1C(=O)N[C@@H](CCC(=O)O)C(=O)N[C@@H](CCC(N)=O)C(=O)N[C@@H](CCSC)C(=O)N[C@@H](C)C(=O)N[C@@H](CCC(N)=O)C(=O)N[C@@H](Cc1ccc(O)cc1)C(=O)N[C@@H](C)C(=O)N[C@@H](C)C(=O)N[C@@H](CC(=O)O)C(=O)N[C@@H](CC(C)C)C(=O)N[C@@H](CCCNC(=N)N)C(=O)N[C@@H](CCCNC(=N)N)C(=O)N[C@@H](Cc1ccc(O)cc1)C(=O)N[C@H](C(=O)N[C@@H](CC(N)=O)C(=O)N[C@@H](CCSC)C(=O)N[C@@H](CC(C)C)C(=O)N[C@H](C(=O)N[C@@H](CCCNC(=N)N)C(=O)N1CCC[C@H]1C(=O)N[C@@H](CCCNC(=N)N)C(=O)N[C@@H](Cc1ccc(O)cc1)C(N)=O)[C@@H](C)O)[C@@H](C)CC)[C@@H](C)O)C(C)C)C(=O)O; target = NPY4R (Homo sapiens, UniProt P50391); test = radioligand displacement; system = COS-7 transiently expressing; conditions = 1 µM, 90 min, room temperature, together with: [3H]-hPP 1 nM; scale = relative to: total binding; measurement = specific binding; result = 37%
SMILES = O=P(O)(O)O; target = ldh (Lactococcus cremoris, UniProt A2RKA4); test = pyruvate reduction, allosteric inhibitor; conditions = 30000 µM, pH 7.0, 30 °C, together with: FBP 1 mM; measurement = remaining activity; result = 78 ± 0.8%
SMILES = CCCOc1ccc(C(=O)Nc2ccc(Cl)cn2)cc1; target = Grm5 (Rattus norvegicus, UniProt P31424); test = calcium mobilization, positive allosteric modulator; system = HEK293; conditions = concentration not given, together with: EC20 glutamate; scale = relative to: maximal glutamate response; measurement = potentiation; result = 106%
SMILES = NS(=O)(=O)c1ccc(COc2ccccc2-c2cc(=O)n(C3CCCCC3O)cn2)cc1 (stereo not drawn); target = CHRM1; test = allosteric agonist, IP1 accumulation; system = CHO-M1 cells; conditions = 1 µM, unit not given; scale = relative to: maximum ACh response; measurement = change in baseline activity; result = 23.4 ± 2.3

A few entries again:
SMILES = O=P(O)(O)O; target = ldh (Lactococcus cremoris, UniProt A2RKA4); test = pyruvate reduction, allosteric inhibitor; conditions = 30000 µM, pH 7.0, 30 °C, together with: FBP 1 mM; measurement = remaining activity; result = 78 ± 0.8%
